{"data": "Results collected from several papers", "note": "Each numbered part is a random draw from the data of one study; scales do not carry over between parts."}
{"data": "Sample 1", "target": "PABPC1L2, full length, GST fusion (mouse, UniProt A0ABA7IW68)", "technique": "RNAcompete", "form": "RNA", "medium": "in vitro", "tested at": "20 nM", "notes": "7-mer, probes averaged, single round", "baseline": "mean of 7-mers", "direction": "higher = stronger binding", "Residues (chain)": "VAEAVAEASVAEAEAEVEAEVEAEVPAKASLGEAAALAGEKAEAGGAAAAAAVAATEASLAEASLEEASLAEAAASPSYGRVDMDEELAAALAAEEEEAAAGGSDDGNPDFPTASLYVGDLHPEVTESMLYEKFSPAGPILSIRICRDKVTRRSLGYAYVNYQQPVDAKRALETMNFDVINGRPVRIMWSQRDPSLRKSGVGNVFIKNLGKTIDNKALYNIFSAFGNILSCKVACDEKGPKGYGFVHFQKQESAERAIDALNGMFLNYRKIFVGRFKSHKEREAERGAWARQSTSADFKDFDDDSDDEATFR"}
{"Sequence": "UAGGGUG", "7-mer Z-score": 0.108}
{"Sequence": "GUCAGAG", "7-mer Z-score": -0.124}
{"Sequence": "GAUAUCA", "7-mer Z-score": -0.179}
{"Sequence": "CAUUUGA", "7-mer Z-score": -0.302}
{"Sequence": "CUUGUCA", "7-mer Z-score": -0.393}
{"Sequence": "GAAGAAG", "7-mer Z-score": 0.236}
{"data": "Sample 2", "target": "Interferon regulatory factor 5, full length, phosphomimetic (IRF5, Homo sapiens, UniProt Q13568-2, residues 1-514, K96S/S451D/S453D/S456D/S462D)", "technique": "protein-binding microarray", "form": "double-stranded DNA, one strand shown", "medium": "in vitro", "tested at": "250 nM", "notes": "60-bp whole probe", "with": "salmon DNA 0.4 mg/ml", "baseline": "random background probes", "direction": "higher = stronger binding", "all sequences stand within": "GCCTAGCAC … GTCTTGATTCGCTTGACGCTGCTG"}
{"Sequence": "CAGAATCCCCTTCTACTCTCGTGCTAG", "log fluorescence [z-score]": 0.00646}
{"Sequence": "TTAGAACTGAGTCTCGTTTAGTGCTAG", "log fluorescence [z-score]": 0.121}
{"Sequence": "TTAGATATCATTTTCGATTAGTGCTAG", "log fluorescence [z-score]": 8.21}
{"Sequence": "ATTCCTCTCACCTCGGCCTCGTGCTAG", "log fluorescence [z-score]": 0.422}
{"Sequence": "TCACTTTTCCATTTTGTACTGTGCTAG", "log fluorescence [z-score]": 1.4}
{"Sequence": "TCACCTTGCATGTTTTTGACTGTGCTA", "log fluorescence [z-score]": 0.679}
{"Sequence": "CTAGGTCTCCTTCTCCTTTAGTGCTAG", "log fluorescence [z-score]": -0.102}
{"data": "Sample 3", "Molecule": "PhoQ, residues 284 288 289 292 302 303 TVTVVA", "technique": "Sort-seq", "refers to": "YFP reporter", "medium": "E. coli", "notes": "PhoQ-PhoP variant library", "with": "10 µM Mg2+", "baseline": "high Mg2+ state", "direction": "higher = stronger signaling"}
{"target": "PhoP, residues 12 14 15 18 19 STHWV (Escherichia coli, UniProt P23836)", "fold induction": 4.28}
{"target": "PhoP, residues 12 14 15 18 19 QYCSL (Escherichia coli, UniProt P23836)", "fold induction": 10.6}
{"target": "PhoP, residues 12 14 15 18 19 SHWTV (Escherichia coli, UniProt P23836)", "fold induction": 0.901}
{"data": "Sample 4", "target": "Histone acetyltransferase KAT6A, both winged helices, GST fusion (KAT6A, Homo sapiens, UniProt Q92794, residues 1-181)", "technique": "protein binding microarray", "form": "double-stranded DNA, one strand shown", "medium": "in vitro", "tested at": "not given", "notes": "8-mer, flanks averaged, mean of 2 arrays, mostly near background", "baseline": "not given", "direction": "higher = stronger binding", "Residues (chain)": "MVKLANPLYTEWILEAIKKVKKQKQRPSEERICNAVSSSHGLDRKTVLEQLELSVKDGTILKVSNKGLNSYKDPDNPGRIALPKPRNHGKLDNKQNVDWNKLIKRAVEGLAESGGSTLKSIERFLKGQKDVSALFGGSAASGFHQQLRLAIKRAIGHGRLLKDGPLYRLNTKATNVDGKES"}
{"Sequence": "ATGATAAA", "E-score": 0.0484}
{"Sequence": "ATTACGAG", "E-score": -0.0966}
{"Sequence": "AGGATTAC", "E-score": -0.0631}
{"Sequence": "GGTCGCCA", "E-score": 0.0146}
{"Sequence": "GCAAACGC", "E-score": 0.0544}
{"Sequence": "ACTGGTGA", "E-score": -0.117}
{"Sequence": "AGCAGTTC", "E-score": 0.00492}
{"Sequence": "AGTTTAGC", "E-score": -0.0673}
{"Sequence": "TAAAAGTA", "E-score": -0.0479}
{"note": "Repeated from above (sample 2):"}
{"Sequence": "TTAGATATCATTTTCGATTAGTGCTAG", "log fluorescence [z-score]": 8.21}
{"Sequence": "CTAGGTCTCCTTCTCCTTTAGTGCTAG", "log fluorescence [z-score]": -0.102}
